Measurements collected from several papers.
A part holds a random share of what one study measured.
UniProt Q13555, sequence (whole entry, looked up): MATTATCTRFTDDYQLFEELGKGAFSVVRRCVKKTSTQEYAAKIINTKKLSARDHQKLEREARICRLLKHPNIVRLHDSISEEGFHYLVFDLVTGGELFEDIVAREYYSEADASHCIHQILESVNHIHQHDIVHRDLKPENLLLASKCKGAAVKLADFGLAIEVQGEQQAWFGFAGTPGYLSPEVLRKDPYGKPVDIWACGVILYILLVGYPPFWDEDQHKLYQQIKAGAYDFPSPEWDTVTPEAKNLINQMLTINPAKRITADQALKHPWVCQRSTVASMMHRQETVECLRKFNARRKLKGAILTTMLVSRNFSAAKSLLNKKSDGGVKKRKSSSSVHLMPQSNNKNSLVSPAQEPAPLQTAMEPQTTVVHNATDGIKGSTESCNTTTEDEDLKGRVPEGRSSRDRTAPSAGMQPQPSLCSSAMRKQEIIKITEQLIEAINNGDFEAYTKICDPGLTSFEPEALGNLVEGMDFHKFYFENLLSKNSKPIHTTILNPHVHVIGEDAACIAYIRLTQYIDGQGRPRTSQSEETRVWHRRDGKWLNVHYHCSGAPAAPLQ
UniProt P51817, sequence (whole entry, looked up): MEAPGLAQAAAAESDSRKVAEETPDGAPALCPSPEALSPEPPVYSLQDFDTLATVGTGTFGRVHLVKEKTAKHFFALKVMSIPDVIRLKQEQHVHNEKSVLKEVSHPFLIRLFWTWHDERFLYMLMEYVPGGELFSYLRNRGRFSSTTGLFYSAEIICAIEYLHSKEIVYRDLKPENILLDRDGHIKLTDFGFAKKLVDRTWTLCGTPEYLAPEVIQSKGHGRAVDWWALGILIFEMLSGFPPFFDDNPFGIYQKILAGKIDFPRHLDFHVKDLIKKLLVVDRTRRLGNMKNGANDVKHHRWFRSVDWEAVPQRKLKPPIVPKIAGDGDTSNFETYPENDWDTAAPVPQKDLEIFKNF
UniProt Q15569, sequence (whole entry, looked up): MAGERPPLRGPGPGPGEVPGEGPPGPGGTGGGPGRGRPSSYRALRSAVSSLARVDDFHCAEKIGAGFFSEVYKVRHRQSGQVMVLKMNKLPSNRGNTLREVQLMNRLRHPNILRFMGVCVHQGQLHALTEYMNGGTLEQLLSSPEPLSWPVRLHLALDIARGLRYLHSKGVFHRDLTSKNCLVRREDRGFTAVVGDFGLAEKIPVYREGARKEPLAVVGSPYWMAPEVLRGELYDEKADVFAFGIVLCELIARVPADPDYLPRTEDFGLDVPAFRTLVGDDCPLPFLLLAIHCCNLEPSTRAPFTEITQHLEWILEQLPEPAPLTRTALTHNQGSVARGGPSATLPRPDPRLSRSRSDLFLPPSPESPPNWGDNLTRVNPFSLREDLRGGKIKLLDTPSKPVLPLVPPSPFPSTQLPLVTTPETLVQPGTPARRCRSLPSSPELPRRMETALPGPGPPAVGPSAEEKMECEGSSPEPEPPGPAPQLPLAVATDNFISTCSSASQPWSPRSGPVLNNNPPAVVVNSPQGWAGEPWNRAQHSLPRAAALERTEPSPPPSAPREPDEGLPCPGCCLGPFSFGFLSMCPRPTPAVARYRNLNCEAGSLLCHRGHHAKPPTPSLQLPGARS
UniProt P53667, sequence (whole entry, looked up): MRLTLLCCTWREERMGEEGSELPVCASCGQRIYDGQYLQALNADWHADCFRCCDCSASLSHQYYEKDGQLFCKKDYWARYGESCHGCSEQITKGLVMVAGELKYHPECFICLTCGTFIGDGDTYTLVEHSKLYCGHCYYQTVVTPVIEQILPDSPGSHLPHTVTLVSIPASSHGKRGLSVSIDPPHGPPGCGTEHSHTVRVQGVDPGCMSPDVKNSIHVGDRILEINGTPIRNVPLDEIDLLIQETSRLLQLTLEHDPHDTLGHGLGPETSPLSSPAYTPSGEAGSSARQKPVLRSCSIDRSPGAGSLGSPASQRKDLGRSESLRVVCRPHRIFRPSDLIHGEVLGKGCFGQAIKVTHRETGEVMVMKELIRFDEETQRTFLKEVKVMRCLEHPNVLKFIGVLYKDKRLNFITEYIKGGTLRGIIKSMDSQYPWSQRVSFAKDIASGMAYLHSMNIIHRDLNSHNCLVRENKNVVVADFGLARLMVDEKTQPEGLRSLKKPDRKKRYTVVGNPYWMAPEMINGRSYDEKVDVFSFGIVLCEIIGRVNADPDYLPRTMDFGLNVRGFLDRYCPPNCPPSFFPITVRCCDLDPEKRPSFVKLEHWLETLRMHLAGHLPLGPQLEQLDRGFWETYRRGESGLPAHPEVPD
UniProt P42679, sequence (whole entry, looked up): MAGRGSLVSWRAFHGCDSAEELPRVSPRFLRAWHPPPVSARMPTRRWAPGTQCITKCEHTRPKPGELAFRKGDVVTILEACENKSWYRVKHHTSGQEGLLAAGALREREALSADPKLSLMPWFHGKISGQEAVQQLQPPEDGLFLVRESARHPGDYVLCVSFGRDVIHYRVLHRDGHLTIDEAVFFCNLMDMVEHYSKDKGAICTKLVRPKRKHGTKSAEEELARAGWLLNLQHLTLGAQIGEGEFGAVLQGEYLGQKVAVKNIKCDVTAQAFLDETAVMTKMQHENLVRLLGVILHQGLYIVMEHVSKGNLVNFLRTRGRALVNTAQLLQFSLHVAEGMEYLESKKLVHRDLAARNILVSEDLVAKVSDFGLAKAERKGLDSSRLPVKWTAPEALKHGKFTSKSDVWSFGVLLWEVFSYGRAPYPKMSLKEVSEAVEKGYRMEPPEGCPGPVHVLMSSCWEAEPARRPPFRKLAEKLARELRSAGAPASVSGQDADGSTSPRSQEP
UniProt Q9UM73, sequence (whole entry, unmodified, looked up): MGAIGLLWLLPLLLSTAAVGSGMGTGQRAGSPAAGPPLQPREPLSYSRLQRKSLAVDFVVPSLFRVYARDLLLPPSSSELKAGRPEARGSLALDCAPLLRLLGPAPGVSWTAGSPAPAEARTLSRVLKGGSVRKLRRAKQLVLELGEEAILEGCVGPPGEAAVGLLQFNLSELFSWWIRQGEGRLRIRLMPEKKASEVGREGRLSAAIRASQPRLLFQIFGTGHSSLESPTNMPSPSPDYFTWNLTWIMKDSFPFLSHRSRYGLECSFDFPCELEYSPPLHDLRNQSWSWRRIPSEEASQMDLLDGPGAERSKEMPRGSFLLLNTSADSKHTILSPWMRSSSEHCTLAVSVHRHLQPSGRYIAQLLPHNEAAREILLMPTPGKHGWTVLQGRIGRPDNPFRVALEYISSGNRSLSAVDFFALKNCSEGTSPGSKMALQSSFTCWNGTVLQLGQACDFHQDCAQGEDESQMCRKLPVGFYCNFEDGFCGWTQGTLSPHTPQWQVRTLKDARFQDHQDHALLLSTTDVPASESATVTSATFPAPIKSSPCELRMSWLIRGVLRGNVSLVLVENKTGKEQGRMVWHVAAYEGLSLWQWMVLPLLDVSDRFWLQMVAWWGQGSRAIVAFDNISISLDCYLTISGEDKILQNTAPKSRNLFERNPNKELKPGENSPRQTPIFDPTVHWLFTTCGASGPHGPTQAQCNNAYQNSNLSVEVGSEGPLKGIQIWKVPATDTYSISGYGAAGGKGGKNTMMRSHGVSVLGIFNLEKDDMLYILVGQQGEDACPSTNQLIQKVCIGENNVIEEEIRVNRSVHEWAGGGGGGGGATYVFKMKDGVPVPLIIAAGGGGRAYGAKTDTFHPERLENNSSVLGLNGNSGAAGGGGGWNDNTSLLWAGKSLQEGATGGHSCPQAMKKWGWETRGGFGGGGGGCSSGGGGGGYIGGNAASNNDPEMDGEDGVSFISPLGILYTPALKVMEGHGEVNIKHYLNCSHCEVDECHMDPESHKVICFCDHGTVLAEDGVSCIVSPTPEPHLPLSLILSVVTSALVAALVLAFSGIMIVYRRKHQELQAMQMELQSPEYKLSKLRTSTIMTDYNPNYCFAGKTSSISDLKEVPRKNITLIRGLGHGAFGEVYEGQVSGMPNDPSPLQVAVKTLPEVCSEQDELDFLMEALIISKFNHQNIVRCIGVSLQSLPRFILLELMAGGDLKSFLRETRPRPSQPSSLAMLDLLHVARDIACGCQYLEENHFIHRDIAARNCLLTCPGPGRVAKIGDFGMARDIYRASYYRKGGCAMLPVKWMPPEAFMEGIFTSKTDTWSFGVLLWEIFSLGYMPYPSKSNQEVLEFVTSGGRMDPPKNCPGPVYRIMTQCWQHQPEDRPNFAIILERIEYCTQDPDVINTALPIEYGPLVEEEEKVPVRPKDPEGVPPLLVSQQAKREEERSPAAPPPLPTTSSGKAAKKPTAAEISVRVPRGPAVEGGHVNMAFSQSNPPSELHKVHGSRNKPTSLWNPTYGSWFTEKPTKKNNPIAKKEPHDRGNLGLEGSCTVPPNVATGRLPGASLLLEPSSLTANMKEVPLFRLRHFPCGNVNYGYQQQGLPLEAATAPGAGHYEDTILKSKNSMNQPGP
UniProt Q8NG66, sequence (whole entry, looked up): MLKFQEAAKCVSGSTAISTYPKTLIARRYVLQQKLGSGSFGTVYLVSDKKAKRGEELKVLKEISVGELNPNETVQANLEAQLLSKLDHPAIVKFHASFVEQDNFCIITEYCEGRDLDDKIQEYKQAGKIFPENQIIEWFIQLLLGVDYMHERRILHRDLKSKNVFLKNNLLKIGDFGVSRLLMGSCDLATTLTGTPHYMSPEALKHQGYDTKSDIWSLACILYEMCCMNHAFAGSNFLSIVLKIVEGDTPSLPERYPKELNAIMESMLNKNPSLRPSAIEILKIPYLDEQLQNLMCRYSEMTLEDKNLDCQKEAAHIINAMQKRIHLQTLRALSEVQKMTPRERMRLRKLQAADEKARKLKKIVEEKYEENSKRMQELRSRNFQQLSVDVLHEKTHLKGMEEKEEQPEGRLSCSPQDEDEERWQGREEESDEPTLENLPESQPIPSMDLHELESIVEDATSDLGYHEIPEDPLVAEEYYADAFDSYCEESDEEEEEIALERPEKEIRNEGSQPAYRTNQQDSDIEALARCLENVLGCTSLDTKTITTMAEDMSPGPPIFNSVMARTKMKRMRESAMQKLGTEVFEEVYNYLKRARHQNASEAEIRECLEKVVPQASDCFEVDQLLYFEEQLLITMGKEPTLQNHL

Block 1 — effect on: enzyme activity; action: inhibitor; concentration: 0.5 µM; relative to: control
Structure (SMILES): CN(C)CCCn1cc(C2=C(c3c[nH]c4ccccc34)C(=O)NC2=O)c2ccccc21
target | remaining activity [%]
MATK (Homo sapiens, UniProt P42679) | 100
NEK11 (Homo sapiens, UniProt Q8NG66) | 104
FER (Homo sapiens, UniProt P16591) | 69.8
MARK3 (Homo sapiens, UniProt P27448) | 72
CDC42BPA (Homo sapiens, UniProt Q5VT25) | 97.1
HIPK1 (Homo sapiens, UniProt Q86Z02) | 96.6
LIM domain kinase 1 (LIMK1, Homo sapiens, UniProt P53667) | 94.7
Cyclin-dependent kinase 3, with cyclin E (CDK3, Homo sapiens, UniProt Q00526) | 93.2
PASK (Homo sapiens, UniProt Q96RG2) | 67
PRKX (Homo sapiens, UniProt P51817) | 85.3
Insulin receptor (INSR, Homo sapiens, UniProt P06213) | 88.9
FGR (Homo sapiens, UniProt P09769) | 90.9

Block 2 — effect on: cell-free assay; method: competition with immobilised ligand; concentration: 1 µM
SMILES: O=C(Nc1cccnn1)N1CCC(=Cc2cccc(Oc3ccc(C(F)(F)F)cn3)c2)CC1
target | remaining binding
CSNK1G3 (Homo sapiens, UniProt Q9Y6M4) | 100%
ZAP70 (Homo sapiens, UniProt P43403) | 100%
eIF-2-alpha kinase GCN2, C-terminal kinase domain (EIF2AK4, Homo sapiens, UniProt Q9P2K8, S808G) | 87%
ALK (Homo sapiens, UniProt Q9UM73, L1196M) | 100%
GRK1 (Homo sapiens, UniProt Q15835) | 89%
MARK1 (Homo sapiens, UniProt Q9P0L2) | 84%
HIPK4 (Homo sapiens, UniProt Q8NE63) | 100%
CAMK1G (Homo sapiens, UniProt Q96NX5) | 95%
ULK2 (Homo sapiens, UniProt Q8IYT8) | 100%
PIK3CA (Homo sapiens, UniProt P42336, I800L) | 100%
CHEK2 (Homo sapiens, UniProt O96017) | 94%
MAP3K20 (Homo sapiens, UniProt Q9NYL2) | 95%
CAMK2G (Homo sapiens, UniProt Q13555) | 74%
TESK1 (Homo sapiens, UniProt Q15569) | 91%

Block 3 — cell line: A-375; concentration: 100 µM; time: 18 h
SMILES | viability [%]
CCOC(=O)C1=C[C@]2(CC)CCCN3CCc4c(n1c1ccccc41)[C@@H]32 | 44.8
CO[C@H]1/C=C/O[C@@]2(C)Oc3c(C)c(O)c4c(O)c(c(/C=N/N5CCN(C6CCCC6)CC5)c(O)c4c3C2=O)NC(=O)/C(C)=C\C=C\[C@H](C)[C@H](O)[C@@H](C)[C@@H](O)[C@@H](C)[C@H](OC(C)=O)[C@@H]1C | 72
Nc1ncnc2c1ncn2[C@@H]1O[C@H](CO)[C@@H](O)[C@H]1O | 98
C[C@H](Cc1cc2c(c(C(N)=O)c1)N(CCCO)CC2)NCCOc1ccccc1OCC(F)(F)F | 94.4
CO/N=C(\C(=O)N[C@@H]1C(=O)N2C(C(=O)O)=C(CSc3nnnn3C)CS[C@H]12)c1csc(N)n1 | 110
CN1CCC(=C2c3ccccc3CC(=O)c3sccc32)CC1 | 76.1
CC(=O)O[C@@]12CO[C@@H]1C[C@H](O)[C@@]1(C)C(=O)[C@H](O)C3=C(C)[C@@H](OC(=O)[C@H](O)[C@@H](NC(=O)OC(C)(C)C)c4ccccc4)C[C@@](O)([C@@H](OC(=O)c4ccccc4)[C@H]21)C3(C)C | 55.4
CCCCC(CC)COC(=O)CC(C(=O)OCC(CC)CCCC)S(=O)(=O)O (centres unmarked) | 17.3

Other studies, line by line
Substance | partner | assay | test system | conditions | measurement | result
SART1 (Homo sapiens, UniProt O43290) | PRPF8 (Homo sapiens, UniProt Q6P2Q9) | cross-linking MS | cells | together with: BSPNO | cross-linked residues | K662 to K1344

A few entries again (block 1):
target | remaining activity [%]
CDC42BPA (Homo sapiens, UniProt Q5VT25) | 97.1
HIPK1 (Homo sapiens, UniProt Q86Z02) | 96.6
LIM domain kinase 1 (LIMK1, Homo sapiens, UniProt P53667) | 94.7
Cyclin-dependent kinase 3, with cyclin E (CDK3, Homo sapiens, UniProt Q00526) | 93.2
PASK (Homo sapiens, UniProt Q96RG2) | 67
PRKX (Homo sapiens, UniProt P51817) | 85.3
